Assay results gathered from unrelated publications.
Lines come from different studies, so protocols differ. ± gives the spread as reported. In brackets after ≈: the same amount, converted by molar mass.

The chains behind the UniProt entries cited, without tags or fusion partners.
UniProt Q96S44, whole entry: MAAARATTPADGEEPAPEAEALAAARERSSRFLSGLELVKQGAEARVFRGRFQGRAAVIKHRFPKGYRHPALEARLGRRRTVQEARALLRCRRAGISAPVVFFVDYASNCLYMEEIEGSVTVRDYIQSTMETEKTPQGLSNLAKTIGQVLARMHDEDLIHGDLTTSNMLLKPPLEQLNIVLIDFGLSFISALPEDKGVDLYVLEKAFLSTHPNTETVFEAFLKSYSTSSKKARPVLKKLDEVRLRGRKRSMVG

SMILES = C[C@]12CCC(=O)C=C1CCC1C2CC[C@]2(C)C(n3cnc4ccccc43)=CCC12 (stereo partly drawn); tested on = LAPC4; test = cell proliferation, MTT; conditions = 7 days, added: DHT 10 nM; endpoint = IC50; value = 1 µM
SMILES = CC[C@H](C)[C@@H]1NC(=O)[C@H](CCC(=O)O)NC(=O)[C@@H]2CCCN2C(=O)[C@H](Cc2c[nH]cn2)NC(=O)[C@H](CC(=O)O)NC(=O)[C@H](Cc2ccc(O)cc2)NC(=O)[C@H](CC(N)=O)NC(=O)[C@@H]2CSSC[C@@H]3NC(=O)CNC(=O)CNC(=O)CNC(=O)[C@H](C)NC(=O)[C@H](C)NC(=O)CNC(=O)CNC(=O)[C@H](CSSC[C@H](NC3=O)C(=O)N[C@@H](CO)C(=O)N[C@@H](CC(=O)O)C(=O)N3CCC[C@H]3C(=O)N[C@@H](CCCNC(=N)N)C(=O)N2)NC1=O; tested on = Cav2.3c human; test = Ba2+ current; conditions = 200 nM; endpoint = inhibition; value = 28 ± 4%
SMILES = O=c1ccc2nc3ccc(OCC4CCOCC4)cc3oc-2c1; tested on = Mycobacterium tuberculosis; test system = mc2 6206 bedaquiline-resistant MmpL5 regulator mutant; conditions = 7 days; endpoint = MIC90; value = 243 µM (≈ 75.7 µg/mL)
SMILES = CCCCCCC1c2ccc(O)cc2Oc2cc(O)ccc21; tested on = Acinetobacter baumannii; test system = ATCC 9955; conditions = no additive; endpoint = MIC; value = > 373 µg/mL
SMILES = CC1(C)CCC(Cc2cc(O)c(-c3ccccc3)c(=O)[nH]2)CC1; tested on = Mycobacterium tuberculosis; test system = inhA D148G resistant mutant; endpoint = MIC50; value = 0.38 µM (≈ 0.118 µg/mL)
SMILES = CC1CCC2(CC1)OOCN(CCCCCCCCCCN1COOC3(CCC(C)CC3)OOC3(CCC(C)CC3)OOC1)COOC1(CCC(C)CC1)OO2 (stereo not drawn); tested on = Jurkat; test = cytotoxicity, 7-AAD flow cytometry; endpoint = IC50; value = 3.12 ± 0.25 µM
SMILES = CC#C/C(=N\OC[C@H]1COCCN1)c1ccc2ncnc(Nc3ccc(OCc4cccc(F)c4)c(Cl)c3)c2c1; tested on = BT-474; test = cell growth, WST-8; conditions = 72 h; endpoint = IC50; value = 0.0099 ± 0.0008 µM
SMILES = COCOc1ccc2nc3ccc(=O)cc-3oc2c1; tested on = Mycobacterium tuberculosis; test system = mc2 6206 PA-824-resistant ddn mutant; conditions = 7 days; endpoint = MIC90; value = 7.2 µM (≈ 1.85 µg/mL)
SMILES = c1ccc(Nc2cccc3ccccc23)cc1; tested on = Manis javanica OBP3 M97A; test = binding, fluorescence binding; conditions = added: 1-NPN probe; endpoint = Kd; value = 0.72 ± 0.21 µM
SMILES = CCc1nc(N)nc(N)c1C#CCc1cc(OC)c(OC)c(-c2ccncc2)c1; tested on = Staphylococcus aureus; test system = MRSA clinical isolate UCH 115, dfrA, SSTI; endpoint = MIC; value = > 20 µg/mL
SMILES = CCOC(=O)OCOc1c(-c2ccc(Oc3ccc(OC(F)(F)F)cc3)cc2)c(C)nc2cc(OC)c(Cl)cc12; tested on = Plasmodium yoelii; test = parasitemia suppression; test system = mouse; conditions = oral, 4 days, PEG-400 vehicle; endpoint = ED50; value = 0.02 mg/kg/day
SMILES = CCC(C)C(CC)C(N)=O (stereo not drawn); test = secondarily generalized seizures; test system = hippocampal kindled rat; endpoint = ED50; value = ~40 mg/kg
SMILES = CO[C@]12CC[C@@]3(C[C@@H]1[C@](C)(O)C(C)(C)C)[C@H]1Cc4ccc(O)c5c4[C@@]3(CCN1CC1CC1)[C@H]2O5; test = antagonist, tail-flick test; test system = mice; conditions = added: morphine; endpoint = AD50; value = 1 mg/kg
SMILES = CC(C)Cc1nnc2c(C(=O)NC3c4ccccc4-c4ccccc43)cccn12; tested on = Escherichia coli; test = broth microdilution; test system = D21f2tolC; endpoint = MIC; value = 8 µg/mL (≈ 20.9 µM)
SMILES = CC(C)COc1ccc2nc3ccc(=O)cc-3oc2c1; tested on = Mycobacterium tuberculosis; test system = mc2 6206 clofazimine-resistant fbiC mutant; conditions = 7 days; endpoint = MIC90; value = 6.9 µM (≈ 1.86 µg/mL)
SMILES = C1CCC2(C1)OOCOCOOC1(CCCC1)OO2; tested on = U-937; test = cytotoxicity, 7-AAD flow cytometry; endpoint = IC50; value = 5.93 ± 0.21 µM
SMILES = C[C@H]1COc2c(N3CCN(C)CC3)c(F)cc3c(=O)c(C(=O)O)cn1c23; tested on = Staphylococcus aureus topoisomerase IV GrlA S81Y; endpoint = concentration of maximal DNA cleavage; value = 300 µM
SMILES = C1CCCC2(CC1)OOCOCOOC1(CCCCCC1)OO2; tested on = Jurkat; test = cytotoxicity, 7-AAD flow cytometry; endpoint = IC50; value = 7.18 ± 0.17 µM
SMILES = CCc1nc(N)nc(N)c1C#CCc1cc(OC)cc(-c2ccc(C(=O)O)cc2)c1; tested on = Staphylococcus aureus; test system = MRSA clinical isolate UCH 115, dfrA, SSTI; endpoint = MIC; value = > 20 µg/mL
SMILES = O=c1ccc2nc3ccc(OCc4ccc([N+](=O)[O-])cc4)cc3oc-2c1; tested on = Mycobacterium tuberculosis; test system = mc2 6206 bedaquiline-resistant MmpL5 regulator mutant; conditions = 7 days; endpoint = MIC90; value = > 256 µM
SMILES = Cc1ccc(S(=O)(=O)N(C)CC(=O)N(Cc2ccc(C3CCCCC3)cc2)c2ccc(C(=O)O)c(O)c2)cc1; tested on = A2780S; test = cell viability, CyQuant; endpoint = IC50; value = > 100 µM
SMILES = COc1cc(OC)c2ccccc2c1C=C1C(=O)NC(=S)NC1=O; tested on = Ly19, SU-DHL-8, TMD8; conditions = 4 µM, 24 h; endpoint = reduced glutathione level; value = decreased
SMILES = Cn1c([N+](=O)[O-])cnc1COc1ccc2nc3ccc(=O)cc-3oc2c1; tested on = Mycobacterium tuberculosis; test system = mc2 6206 bedaquiline-resistant MmpL5 regulator mutant; conditions = 7 days; endpoint = MIC90; value = > 256 µM
SMILES = CCC(C)C1NC(=O)/C(=C(/C)O)C1=O (stereo not drawn); tested on = plasma membrane H+-ATPase (Spinacia oleracea); test = ATP hydrolysis, measured: ATP; test system = plasma membrane fraction; conditions = 1.0 µM; endpoint = Km; value = 2560 µM
SMILES = CCCCCCCCCCCCCC(=S)NCCCC[C@H](NC(=O)OCc1ccccc1)C(=O)Nc1cccc(O)c1; tested on = NCI-H23; test = cell growth; endpoint = GI50; value = 6.6 ± 0.3 µM
SMILES = Cc1csc(CCCNCc2cc(=O)c3cc(F)ccc3[nH]2)n1; tested on = cells expressing human DRD4; test = arrestin over Gαi/o signalling; scale = reference: quinpirole; endpoint = bias factor; value = 20 fold
SMILES = CC(C)[C@H]1CC[C@@H](N2CCC(n3c(CO)cc4ccccc43)CC2)CC1; tested on = sodium channel site 2; test = radioligand binding; conditions = 10 µM; endpoint = inhibition; value = 94%
SMILES = O=C(C1CC1)N1CC2CC(C1)N2; test = limb use asymmetry test; test system = rat, unilateral 6-OHDA lesion; conditions = 5 min period, off L-dopa; endpoint = contralateral forelimb use; value = 12.9 ± 3%
SMILES = CCN(CC)C(=O)Oc1ccc(C(=O)Nc2cccc3cc[nH]c23)cc1; test = NMDA receptor EPSC, inhibitor, whole-cell patch clamp; test system = CA1 interneurons, mouse, hippocampal slices; conditions = 10 µM; scale = reference: control; endpoint = charge transfer; value = 63 ± 9.7%
SMILES = O=c1ccc2nc3ccc(OCc4ccc([N+](=O)[O-])o4)cc3oc-2c1I; tested on = Mycobacterium tuberculosis; test system = mc2 6206 PA-824-resistant ddn mutant; conditions = 7 days; endpoint = MIC90; value = > 256 µM
SMILES = C(CCCCCN1COOC2(CCCC2)OOC2(CCCC2)OOC1)CCCCN1COOC2(CCCC2)OOC2(CCCC2)OOC1; tested on = HEK293; test = cytotoxicity, 7-AAD flow cytometry; endpoint = IC50; value = 15.3 ± 0.29 µM
SMILES = Cc1c(N2CC[C@@H](CN)C2)c(F)cc2c(=O)n(N)c(=O)n(C3CC3)c12; tested on = Staphylococcus aureus topoisomerase IV GrlA S81Y; endpoint = maximal DNA cleavage; value = 30.3%
SMILES = O=c1ccc2ccc(OCc3ccc([N+](=O)[O-])o3)cc2o1; tested on = Mycobacterium tuberculosis; test system = mc2 6206 PA-824-resistant ddn mutant; conditions = 7 days; endpoint = MIC90; value = 14.2 µM (≈ 4.08 µg/mL)
SMILES = CCN1CCN(Cc2ccc(NC(=O)c3ccc(C)c(/C=C/c4cnc5[nH]ccc5c4OC)c3)cc2C(F)(F)F)CC1; tested on = TP53RK (Homo sapiens, UniProt Q96S44); test = inhibitor, cell-based kinome screen; conditions = 5 µM; scale = reference: vehicle; endpoint = log2 fold change; value = -0.102
SMILES = COCOc1ccc2nc3ccc(=O)c(I)c-3oc2c1; tested on = Mycobacterium tuberculosis; test system = mc2 6206 clofazimine-resistant fbiC mutant; conditions = 7 days; endpoint = MIC90; value = 16 µM (≈ 6.13 µg/mL)
SMILES = CSc1nc(Cl)cc(Sc2nnc(-c3cc(C(F)(F)F)cc(C(F)(F)F)c3)[nH]2)n1; tested on = Escherichia coli; test system = NR698; conditions = 37 °C, without PMBN; endpoint = MIC; value = 2.2 µg/mL (≈ 4.66 µM)
